Experimental data collected from several papers.
Each numbered part is a random draw from the data of one study; scales do not carry over between parts.
UniProt Q15418, sequence (whole entry, looked up): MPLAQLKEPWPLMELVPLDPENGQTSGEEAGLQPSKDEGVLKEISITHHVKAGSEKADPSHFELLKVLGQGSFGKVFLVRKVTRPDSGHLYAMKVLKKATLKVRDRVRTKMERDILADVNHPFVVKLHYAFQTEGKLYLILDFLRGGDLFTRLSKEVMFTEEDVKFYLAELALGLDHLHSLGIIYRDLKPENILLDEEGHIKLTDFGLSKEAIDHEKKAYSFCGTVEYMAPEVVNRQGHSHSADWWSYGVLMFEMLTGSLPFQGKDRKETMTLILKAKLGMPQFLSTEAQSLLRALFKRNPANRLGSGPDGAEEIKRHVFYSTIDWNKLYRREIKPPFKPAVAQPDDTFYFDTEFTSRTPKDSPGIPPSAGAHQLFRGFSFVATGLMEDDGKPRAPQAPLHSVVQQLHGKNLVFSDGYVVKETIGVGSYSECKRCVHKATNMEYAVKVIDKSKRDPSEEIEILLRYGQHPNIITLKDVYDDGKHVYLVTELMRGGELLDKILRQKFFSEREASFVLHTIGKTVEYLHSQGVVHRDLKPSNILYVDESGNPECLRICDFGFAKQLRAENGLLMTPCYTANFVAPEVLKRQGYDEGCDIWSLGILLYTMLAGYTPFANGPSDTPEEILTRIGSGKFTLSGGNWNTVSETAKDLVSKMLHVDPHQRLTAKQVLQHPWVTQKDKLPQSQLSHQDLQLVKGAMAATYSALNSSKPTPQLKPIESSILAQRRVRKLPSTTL
UniProt P53779, sequence (whole entry, looked up): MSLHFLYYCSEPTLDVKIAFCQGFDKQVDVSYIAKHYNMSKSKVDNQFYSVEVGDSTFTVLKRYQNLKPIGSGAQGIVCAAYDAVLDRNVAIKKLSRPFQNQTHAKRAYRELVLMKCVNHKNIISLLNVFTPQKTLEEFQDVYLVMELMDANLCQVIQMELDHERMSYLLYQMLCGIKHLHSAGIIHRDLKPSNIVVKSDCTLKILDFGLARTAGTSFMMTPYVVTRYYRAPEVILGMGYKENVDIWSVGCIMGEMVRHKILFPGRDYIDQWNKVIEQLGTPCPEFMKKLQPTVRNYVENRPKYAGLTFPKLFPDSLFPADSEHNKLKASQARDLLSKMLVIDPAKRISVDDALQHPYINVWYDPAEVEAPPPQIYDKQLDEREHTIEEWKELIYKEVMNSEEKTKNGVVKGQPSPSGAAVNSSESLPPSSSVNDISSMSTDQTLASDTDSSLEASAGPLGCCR
UniProt Q9BXA7, sequence (whole entry, looked up): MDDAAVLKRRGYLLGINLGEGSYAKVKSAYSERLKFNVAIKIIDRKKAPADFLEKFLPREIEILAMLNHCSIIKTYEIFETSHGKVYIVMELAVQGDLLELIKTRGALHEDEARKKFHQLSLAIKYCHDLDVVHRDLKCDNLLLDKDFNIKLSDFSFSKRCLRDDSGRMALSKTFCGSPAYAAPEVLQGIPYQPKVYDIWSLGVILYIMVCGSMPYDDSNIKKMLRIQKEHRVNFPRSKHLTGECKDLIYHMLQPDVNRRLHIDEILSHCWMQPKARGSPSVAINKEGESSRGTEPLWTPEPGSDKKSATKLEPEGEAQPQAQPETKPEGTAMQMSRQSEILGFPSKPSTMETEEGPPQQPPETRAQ
UniProt O95747, sequence (whole entry, looked up): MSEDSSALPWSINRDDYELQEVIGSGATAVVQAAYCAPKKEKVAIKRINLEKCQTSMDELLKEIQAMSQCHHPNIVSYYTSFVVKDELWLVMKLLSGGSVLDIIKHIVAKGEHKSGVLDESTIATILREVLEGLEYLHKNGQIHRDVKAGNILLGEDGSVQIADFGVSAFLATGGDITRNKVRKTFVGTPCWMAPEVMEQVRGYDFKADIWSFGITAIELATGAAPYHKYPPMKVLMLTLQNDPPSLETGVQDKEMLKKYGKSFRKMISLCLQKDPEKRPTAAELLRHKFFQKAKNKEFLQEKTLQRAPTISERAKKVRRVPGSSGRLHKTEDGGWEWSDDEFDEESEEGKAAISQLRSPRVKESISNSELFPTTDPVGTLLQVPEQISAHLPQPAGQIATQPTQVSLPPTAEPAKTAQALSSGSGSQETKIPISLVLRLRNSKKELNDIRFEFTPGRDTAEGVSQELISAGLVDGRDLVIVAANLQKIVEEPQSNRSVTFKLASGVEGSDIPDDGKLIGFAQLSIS
UniProt Q9BZL6, sequence (whole entry, looked up): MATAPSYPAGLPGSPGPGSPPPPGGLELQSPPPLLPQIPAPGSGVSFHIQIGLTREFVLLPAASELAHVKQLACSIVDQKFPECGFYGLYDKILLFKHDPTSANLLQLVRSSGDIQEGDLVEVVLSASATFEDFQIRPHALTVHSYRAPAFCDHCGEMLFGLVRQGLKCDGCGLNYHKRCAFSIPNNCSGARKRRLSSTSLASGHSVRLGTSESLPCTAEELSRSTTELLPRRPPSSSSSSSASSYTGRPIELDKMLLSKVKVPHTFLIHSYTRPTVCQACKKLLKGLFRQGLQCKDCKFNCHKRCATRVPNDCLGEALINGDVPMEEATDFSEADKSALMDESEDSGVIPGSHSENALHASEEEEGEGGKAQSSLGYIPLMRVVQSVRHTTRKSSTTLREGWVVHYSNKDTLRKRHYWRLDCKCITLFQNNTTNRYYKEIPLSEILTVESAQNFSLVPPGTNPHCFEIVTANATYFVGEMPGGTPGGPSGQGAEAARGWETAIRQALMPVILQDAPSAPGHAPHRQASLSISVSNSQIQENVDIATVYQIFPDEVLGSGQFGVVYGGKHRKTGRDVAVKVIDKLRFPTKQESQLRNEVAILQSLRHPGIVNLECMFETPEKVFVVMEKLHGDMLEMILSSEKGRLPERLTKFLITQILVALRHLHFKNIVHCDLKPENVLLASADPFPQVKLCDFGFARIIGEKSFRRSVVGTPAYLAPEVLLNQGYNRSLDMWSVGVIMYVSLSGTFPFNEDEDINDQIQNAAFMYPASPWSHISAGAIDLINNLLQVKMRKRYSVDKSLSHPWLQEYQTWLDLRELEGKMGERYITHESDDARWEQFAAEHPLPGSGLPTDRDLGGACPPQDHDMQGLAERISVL
UniProt Q9UHD2, sequence (whole entry, looked up): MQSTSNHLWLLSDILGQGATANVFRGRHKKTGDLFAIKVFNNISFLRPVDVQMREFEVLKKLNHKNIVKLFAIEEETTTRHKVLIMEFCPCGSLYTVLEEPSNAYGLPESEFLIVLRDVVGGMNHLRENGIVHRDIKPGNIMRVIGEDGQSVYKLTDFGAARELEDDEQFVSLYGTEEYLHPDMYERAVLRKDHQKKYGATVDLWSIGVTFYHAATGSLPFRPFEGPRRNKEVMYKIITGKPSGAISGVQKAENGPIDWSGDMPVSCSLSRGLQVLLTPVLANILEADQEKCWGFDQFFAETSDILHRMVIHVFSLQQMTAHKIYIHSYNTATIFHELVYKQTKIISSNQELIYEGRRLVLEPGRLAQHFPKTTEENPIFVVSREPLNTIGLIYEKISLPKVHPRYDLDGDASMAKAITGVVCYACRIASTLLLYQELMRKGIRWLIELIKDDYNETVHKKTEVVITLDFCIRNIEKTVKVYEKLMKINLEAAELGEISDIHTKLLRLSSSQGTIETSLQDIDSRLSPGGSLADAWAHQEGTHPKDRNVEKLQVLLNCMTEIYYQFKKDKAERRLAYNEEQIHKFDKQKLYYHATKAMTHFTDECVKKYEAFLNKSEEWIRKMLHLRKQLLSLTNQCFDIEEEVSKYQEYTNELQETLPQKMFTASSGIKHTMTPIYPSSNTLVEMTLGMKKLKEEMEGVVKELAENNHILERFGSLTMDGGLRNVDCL
UniProt P53778, sequence (whole entry, looked up): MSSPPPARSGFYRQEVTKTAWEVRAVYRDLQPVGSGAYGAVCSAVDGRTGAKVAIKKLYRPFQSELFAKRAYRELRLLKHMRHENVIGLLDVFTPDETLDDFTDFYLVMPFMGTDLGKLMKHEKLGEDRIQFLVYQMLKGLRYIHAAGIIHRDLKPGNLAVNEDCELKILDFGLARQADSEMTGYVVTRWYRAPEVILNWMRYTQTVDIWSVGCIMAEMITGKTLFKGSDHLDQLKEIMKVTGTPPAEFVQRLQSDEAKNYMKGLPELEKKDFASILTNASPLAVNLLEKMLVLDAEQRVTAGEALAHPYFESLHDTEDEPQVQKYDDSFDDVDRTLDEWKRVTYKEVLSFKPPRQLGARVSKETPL
UniProt Q9P1W9, sequence (whole entry, looked up): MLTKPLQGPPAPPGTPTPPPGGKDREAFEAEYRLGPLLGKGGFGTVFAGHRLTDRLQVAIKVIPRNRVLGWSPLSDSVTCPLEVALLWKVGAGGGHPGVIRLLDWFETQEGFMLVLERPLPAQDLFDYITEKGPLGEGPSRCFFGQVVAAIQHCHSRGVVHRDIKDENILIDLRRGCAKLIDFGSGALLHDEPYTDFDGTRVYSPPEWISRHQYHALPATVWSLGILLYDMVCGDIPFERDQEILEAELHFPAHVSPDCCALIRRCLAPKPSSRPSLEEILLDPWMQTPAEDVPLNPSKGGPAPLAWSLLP

Sample 1
Target: Runt-related transcription factor 1, full length (RUNX1, Homo sapiens, UniProt Q01196-8, residues 1-480)
Technique: protein-binding microarray
Molecule type: hairpin DNA
Medium: in vitro
Concentration: not given
Notes: whole hairpin DNA, median over replicate spots
Relative to: not given
Direction: higher = stronger binding
Oligonucleotide | median fluorescence [a.u.]
GAGGCCTGTTGTGATTGGCCTCCTGGCCAATCACAACAGGCCTCACACTC | 1650
CTCAGTTCTCTGGGCTGGACTCCTGTCCAGCCCAGAGAACTGAGACACTC (5mC at 10) | 1610
GAGGCCCAACCGCCGCAGCCTCCTGGCTGCGGCGGTTGGGCCTCACACTC (5mC at 30) | 3000
GAGGCCTGTTGTGGTCGGCCTCCTGGCCGACCACAACAGGCCTCACACTC (5mC at 16 28) | 2860
GAGGCCTGTTGCGGCTGGCCTCCTGGCCAGCCGCAACAGGCCTCACACTC (5mC at 15) | 2320
CTCAGTTCTGAGGGCTGGACTCCTGTCCAGCCCTCAGAACTGAGACACTC | 1710
GAGGCCTGTCCCGGTTGGCCTCCTGGCCAACCGGGACAGGCCTCACACTC | 1730
GAGGCCTGCGGCGGTTGGCCTCCTGGCCAACCGCCGCAGGCCTCACACTC (5mC at 9) | 2780

Sample 2
Compound: Cc1cc(-n2nc(Cc3cc(F)cc(C(F)(F)F)c3)nc2C)ccc1C(N)=O
Read-out: cell-free assay
Technique: competition with immobilised ligand
Concentration: 1 µM
target | remaining binding
CDK16 (Homo sapiens, UniProt Q00536) | 100%
TBK1 (Homo sapiens, UniProt Q9UHD2) | 89%
PRKD2 (Homo sapiens, UniProt Q9BZL6) | 94%
EGFR (Homo sapiens, UniProt P00533) | 100%
Non-receptor tyrosine-protein kinase TYK2, JH2 (TYK2, Homo sapiens, UniProt P29597) | 100%
TSSK1B (Homo sapiens, UniProt Q9BXA7) | 90%
Ribosomal protein S6 kinase alpha-1, N-terminal kinase domain (RPS6KA1, Homo sapiens, UniProt Q15418) | 100%
MAPK12 (Homo sapiens, UniProt P53778) | 100%
MAPK10 (Homo sapiens, UniProt P53779) | 100%
PIM2 (Homo sapiens, UniProt Q9P1W9) | 83%
TGFBR2 (Homo sapiens, UniProt P37173) | 100%
Tyrosine-protein kinase JAK2, JH1 (JAK2, Homo sapiens, UniProt O60674) | 100%
OXSR1 (Homo sapiens, UniProt O95747) | 91%

Sample 3
Target: Myosin light chain kinase 2, skeletal/cardiac muscle (MYLK2, Homo sapiens, UniProt Q9H1R3)
UniProt Q9H1R3, sequence (whole entry, looked up): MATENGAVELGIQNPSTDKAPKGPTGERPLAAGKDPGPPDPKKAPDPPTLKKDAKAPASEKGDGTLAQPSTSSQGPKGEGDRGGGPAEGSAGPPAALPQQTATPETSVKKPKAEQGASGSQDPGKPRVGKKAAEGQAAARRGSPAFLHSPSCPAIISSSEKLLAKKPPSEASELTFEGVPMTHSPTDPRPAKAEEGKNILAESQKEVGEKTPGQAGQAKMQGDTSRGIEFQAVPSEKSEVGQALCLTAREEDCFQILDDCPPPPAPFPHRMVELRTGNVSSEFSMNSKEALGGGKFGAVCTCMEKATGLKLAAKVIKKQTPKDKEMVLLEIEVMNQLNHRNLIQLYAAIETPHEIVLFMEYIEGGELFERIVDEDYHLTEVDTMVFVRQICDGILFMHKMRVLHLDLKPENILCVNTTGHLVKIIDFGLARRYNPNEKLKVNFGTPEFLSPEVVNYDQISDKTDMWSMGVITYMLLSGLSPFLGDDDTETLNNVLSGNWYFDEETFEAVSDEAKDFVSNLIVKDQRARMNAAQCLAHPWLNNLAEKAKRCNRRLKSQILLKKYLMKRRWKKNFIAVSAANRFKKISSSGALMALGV
Read-out: enzyme activity
Mode: inhibitor
Concentration: 0.5 µM
Relative to: control
Compound | remaining activity
CNC(=O)c1cc(Oc2ccc(NC(=O)Nc3ccc(Cl)c(C(F)(F)F)c3)cc2)ccn1 | 96.1%
COc1cc2nccc(Oc3ccc(NC(=S)NC(=O)c4ccccc4C)cc3)c2cc1OC | 26.8%
COc1ccc(C(=O)Nc2sc3c(c2C(N)=O)CCCC3)cc1OC | 94.4%
N#CC(C#N)=C(N)/C(C#N)=C/c1ccc(O)cc1 | 99.4%
O=c1c2ccccc2[nH]c(=S)n1CCN1CCC(=C(c2ccc(F)cc2)c2ccc(F)cc2)CC1 | 99.9%
NCCNc1ncc(C(N)=O)c(Nc2cccc(C(F)(F)F)c2)n1 | 90.1%
O=C(Nc1cccc(Nc2cc(Nc3cccc(C(F)(F)F)c3)ncn2)c1)C1CC1 | 98.9%
Nc1[nH]nc2nc3ccccc3nc12 | 90.5%
COc1cc2ncnc(Nc3ccc(F)c(Cl)c3)c2cc1OCCCN1CCOCC1 | 99.2%
Nc1ncnc2n[nH]c(Nc3ccc(F)cc3)c12 | 87.3%
CC(C)[C@H](CO)Nc1nc(Nc2cc(N)cc(Cl)c2)c2ncn(C(C)C)c2n1 | 99.5%
OCC(O)CCON=C1C(c2c(O)[nH]c3ccccc23)=Nc2ccccc21 (centres unmarked) | 27.3%
CN(C)c1ccc(C=C2C(=O)Nc3ccccc32)cc1 | 82.6%
Cn1c2ccccc2c2c3c(c4c5ccccc5n(CCC#N)c4c21)CNC3=O | 59.6%
O=C(O)c1ccc2c3c1cccc3c(=O)n1c3ccccc3nc21 | 99.6%

Sample 4
Target: Prothrombin, mature alpha-thrombin (F2, Homo sapiens, UniProt P00734)
Technique: aptamer microarray, sandwich
Molecule type: DNA with 2'F-ANA
Medium: in vitro
Concentration: 200 nM
Notes: whole 15-mer aptamer, many near background
With: Cy3 exosite-II aptamer, 400 nM
Direction: higher = stronger binding
Oligonucleotide: GGTTGGTGTGGTTGG
Modification | mean fluorescence intensity
2'F-ANA at 4 8 9 12 | 572 a.u.
2'F-ANA at 1 5 6 7 8 9 10 11 13 | 52 a.u.
2'F-ANA at 1 3 5 6 7 8 11 15 | 61.4 a.u.
2'F-ANA at 1 3 5 6 7 9 12 13 | 78.7 a.u.
2'F-ANA at 2 3 5 6 8 10 13 14 | 51.4 a.u.
2'F-ANA at 1 6 8 9 12 13 15 | 263 a.u.
2'F-ANA at 1 2 5 6 7 11 | 50.2 a.u.
2'F-ANA at 1 4 8 10 11 14 | 48.4 a.u.
